Results from different studies.
Every numbered part comes from another study and shows a few of its results, in no order.

Sample 1 — technique: universal PBM; form: double-stranded DNA, one strand shown; medium: in vitro; tested at: 600 nM; direction: higher = stronger binding; endpoint: E-score
Target: Sal-like protein 4, full length isoform A (SALL4, Homo sapiens, UniProt Q9UJQ4, residues 1-1053)
Sequence of UniProt Q9UJQ4 (whole entry, looked up): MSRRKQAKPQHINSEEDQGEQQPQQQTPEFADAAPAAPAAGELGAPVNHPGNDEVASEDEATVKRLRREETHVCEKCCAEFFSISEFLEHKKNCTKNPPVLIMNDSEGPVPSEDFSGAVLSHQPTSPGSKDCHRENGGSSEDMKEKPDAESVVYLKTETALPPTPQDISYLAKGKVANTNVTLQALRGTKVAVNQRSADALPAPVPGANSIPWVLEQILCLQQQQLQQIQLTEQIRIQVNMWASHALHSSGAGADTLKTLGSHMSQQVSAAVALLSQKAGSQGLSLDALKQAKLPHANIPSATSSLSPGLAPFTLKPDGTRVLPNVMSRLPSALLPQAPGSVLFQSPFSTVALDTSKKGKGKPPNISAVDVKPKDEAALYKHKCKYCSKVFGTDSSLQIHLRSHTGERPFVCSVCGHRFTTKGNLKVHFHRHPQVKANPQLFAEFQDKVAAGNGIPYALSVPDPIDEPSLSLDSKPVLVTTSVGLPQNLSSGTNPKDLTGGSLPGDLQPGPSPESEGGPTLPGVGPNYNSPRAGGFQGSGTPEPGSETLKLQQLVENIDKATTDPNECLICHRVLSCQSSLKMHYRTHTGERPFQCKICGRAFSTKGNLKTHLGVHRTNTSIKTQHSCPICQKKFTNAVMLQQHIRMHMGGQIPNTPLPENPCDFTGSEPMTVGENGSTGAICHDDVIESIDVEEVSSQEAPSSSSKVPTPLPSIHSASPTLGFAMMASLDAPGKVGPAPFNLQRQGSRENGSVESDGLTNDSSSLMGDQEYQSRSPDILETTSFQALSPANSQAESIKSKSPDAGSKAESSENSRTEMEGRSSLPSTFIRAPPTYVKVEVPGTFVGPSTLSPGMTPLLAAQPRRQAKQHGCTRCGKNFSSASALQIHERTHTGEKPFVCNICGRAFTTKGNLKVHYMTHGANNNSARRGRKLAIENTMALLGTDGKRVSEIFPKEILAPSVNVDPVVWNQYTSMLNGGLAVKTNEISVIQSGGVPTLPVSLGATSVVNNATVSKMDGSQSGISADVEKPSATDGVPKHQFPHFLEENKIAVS
Notes: 8-mer, flanks averaged, mean of replicates
AAGGCCCA: -0.184
GGAGGCAC: -0.256
AAAATAAT: 0.387
AAGCTTGT: 0.104
ATAAGCAT: 0.239
CGAACAAG: -0.135
CGAAGGAC: -0.185
GTACATTA: 0.282
GGATTTAC: 0.0363
CTATTGCA: 0.212
ACGTCCCG: -0.367
CTCCAACA: -0.00156
CATTTTTA: 0.247
AGACGACG: -0.208
GCGCTAAC: -0.0143
CTCCATCA: 0.00218
CCCCCCCG: -0.46
ACCGCGTA: -0.125
CATGGTAG: -0.151
GGGTGTGA: -0.129
ATGATGCC: 0.0771
CAGGGCAC: -0.237
CTCTACAG: 0.00931
GGTGCACC: -0.342
ATAAGATA: 0.306

Sample 2 — technique: competition protein-binding microarray; form: double-stranded DNA, one strand shown; medium: in vitro; tested at: 2 µM; added: Cbf1 competitor, 0.05 µM; direction: higher = stronger binding; endpoint: fluorescence intensity; all sequences stand within: … GTCTTGATTCGCTTGACGCTGCTG
Target: Phosphate system positive regulatory protein PHO4, full length, GST-tagged (PHO4, Saccharomyces cerevisiae, UniProt P07270, residues 1-312)
Notes: whole 60-bp probe, lowest competitor level
Residues (chain): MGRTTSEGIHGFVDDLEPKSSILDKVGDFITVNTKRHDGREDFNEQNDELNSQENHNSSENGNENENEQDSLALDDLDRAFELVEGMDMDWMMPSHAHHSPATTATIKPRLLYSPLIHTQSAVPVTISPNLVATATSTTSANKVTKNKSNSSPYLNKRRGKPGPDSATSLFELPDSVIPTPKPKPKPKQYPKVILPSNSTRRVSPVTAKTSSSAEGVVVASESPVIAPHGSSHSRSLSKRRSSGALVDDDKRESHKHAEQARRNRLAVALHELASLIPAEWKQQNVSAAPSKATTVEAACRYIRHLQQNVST
AGGATAATGTATTGTCATGCTGACGTATCCCATTCT: 5680 a.u.
ATCCTCTAACGCTTCTACCACCGTCTCTTCTACGAT: 4060 a.u.
CTATCTTCAAAGGTTGTCGTGCCGATGTTGTAATGG: 7360 a.u.
CTAACGAAGGTTTGTCCCGTGGGTGACAAGCCAAGT: 7390 a.u.
AAAGGACCATTTAGGTACGTGGGACCGCAAAGGTTC: 6860 a.u.
AGCTTGGGGTGCTTGGGCGTGCGATGCTCGAGGCAT: 7260 a.u.
GCAACGCCCCCTTCCCACGTGGTCTTCTCCCTCTCC: 13500 a.u.
CTTCTGTAAATTTGTCACTCAACTTGACGCGCCCCG: 3550 a.u.
GTCTTGTCTCATTGGTCGGTGGGTGTCCCCACTTCA: 4290 a.u.
ATCTGGAAACTCCGACGCGTGAGGCCTCGCGTCGCT: 6030 a.u.
GGGCTAAAGAGCCGTCCCGTGATGGCCTGTAATGGC: 5170 a.u.
TTATTGGTGGACAGTCAGCTGACAGAAAACTTAGAT: 3350 a.u.
GCGGTCCCTTCTTCGGGCGTGATGGGCCGCTTTGGC: 3870 a.u.
CTAACGAAGGTTTGACCCGTGGGTGACAAGCCAAGT: 10300 a.u.
AAATTACTAAGTTGTTGTGTGGGTGACGCCGTATGA: 4820 a.u.
TCGATGGCCATGTTACACATGGACATAAGTGCTTCC: 5540 a.u.
GTCTTATCTTTAGTGTGCGTGCAAACTGACTCATCG: 8410 a.u.
TGTTGAGTTACACCCCGCGTGCTAAAAAAGGGGTGA: 11200 a.u.
CTTCTGTAAATTTGGAAAGTGGGTGGACGCGCCCCG: 3580 a.u.
AAGTTCATATATTTGCACGTGCTGTTAGCTCTTTTC: 16400 a.u.
CCAACTTTTTTGGATCACATGATAAGAGTTACTATT: 6510 a.u.

Sample 3 — technique: aptamer microarray, sandwich; form: DNA with 2'F-ANA; medium: in vitro; tested at: 200 nM; added: Cy3 exosite-II aptamer, 400 nM; direction: higher = stronger binding; endpoint: mean fluorescence intensity; oligonucleotide: GGTTGGTGTGGTTGG
Target: Prothrombin, mature alpha-thrombin (F2, Homo sapiens, UniProt P00734)
Notes: whole 15-mer aptamer, many near background
2'F-ANA at 3 4 5 6 7 10 12 13: 49.6 a.u.
2'F-ANA at 2 5 7 9 10 12 13 14: 136 a.u.
2'F-ANA at 2 6 7 8 9 11 13: 327 a.u.
2'F-ANA at 2 5 9 10 12: 52.7 a.u.
2'F-ANA at 1 3 4 5 10 11 13 14: 46.7 a.u.
2'F-ANA at 1 5 9 10 11 13 15: 45.9 a.u.
2'F-ANA at 1 5 6 7 9 10 11 12 13 15: 50.9 a.u.
2'F-ANA at 3 8 9 10 13 14: 409 a.u.
2'F-ANA at 1 2 4 5 6 8 9 10 12 13 15: 131 a.u.
2'F-ANA at 2 4 6 7 9 10 14: 73 a.u.
2'F-ANA at 3 4 7 9 10 11 13: 250 a.u.
2'F-ANA at 1 2 3 4 5 7 8 9 11 12 14: 59.9 a.u.
2'F-ANA at 1 3 4 5 9 10 12: 49.7 a.u.
2'F-ANA at 1 2 3 5 6 7 8 12: 137 a.u.
2'F-ANA at 3 5 8 9 10 11 13: 112 a.u.
2'F-ANA at 1 2 3 4 6 7 9 10 11 12 15: 65.7 a.u.
2'F-ANA at 2 3 4 5 9 10 11 12 13 15: 56.6 a.u.
2'F-ANA at 2 8 12 13: 667 a.u.
2'F-ANA at 1 4 5 8 11 12 15: 87.4 a.u.
2'F-ANA at 2 3 4 12 13: 751 a.u.

Sample 4 — technique: RNA Bind-n-Seq; form: RNA; medium: in vitro; tested at: 365 nM; relative to: no-protein control; direction: higher = stronger binding; endpoint: RBNS enrichment (R)
Target: RNA binding protein fox-1 homolog 2, RRM domain, GST-SBP tag (RBFOX2, Homo sapiens, UniProt O43251-10, residues 100-194)
Notes: natural RNA segment, single round, ends assumed
All sequences stand within: GGGAGUUCUACAGUCCGACGAUC … UGGAAUUCUCGGGUGCCAA
Construct (chain): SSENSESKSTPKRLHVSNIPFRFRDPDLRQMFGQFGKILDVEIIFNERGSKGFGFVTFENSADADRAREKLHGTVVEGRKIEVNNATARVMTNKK
CUUACUGUUAACCAAAUUUUGAGCAAGGAGUCUCAAAGGUAAUUCUGAACCAGAAUUACAUGUUAAUGAACAGUGUACCUUUUAACAGUGUAAAUCACGGAAUAUCCGUG: 0.392
UUGAGUUUCCAAUGGAACCCUUGUUUUUUAAUAAUCGACUUUUUAAAUGUGAUCAGGACUAUAAUAUUGUACAGUUAUUAUAGGGCUUUUGGGGAAGGGGAGGAUAGCGA: 0.798
CCAUUCAGGGAACCGGCAGCGCCCACCUAGCGGAGCCGGCUUGGCCCCUCCUGAAAGGAUGGAAGGAAACCACCUCCAUCGGUACUCCAAAGUUCUUGAAGCCCACUUGG: 0.272
CCAUGCUCCUCUCAUGGGUUUCUUCCCACCUAGCCAGUGCCUUCAUUUGCUUGUUGUACAGUUUCUUGUAGUUUAUUUUUUAAUAGAUUUGAAUAAAACCUAAAUAGCGC: 2.22
GCCUUCGCACCUGGAGGGUCAGAACGUGCACACACUGCUAACUAGUUUGCACCGGCAGUGCCUUUUUCACUGAGGGCACCUGUGCUCUCAGGUCCUUGUCCCUCAUAGCC: 0.576
UGUUGGCCAGAGGUAUCUGGGAGAACCUACCCUUUCUAGGAGUGGCUCCUGCCUGACUCUUCCUUCGUCGGAGAAAGGAAAAAACAGUGUUAAGUGACCUAGAAACUUGA: 0.387
ACUUAGCAGUGGGACCUCACUUUUACAAGCACUGCUCUAGAUAUACUUGAAGAAUUUAAUAGGUACAGAAGUUUAUUCUGGAUAAUAAAUAAAUAAGGAUCACACUGUAU: 0.521
UUAGUAACGUCUAAGGCCAUGUUGCCUUUGUCUUUAGAGUAAUUCCUGGCUGUGCCUACCACUCCUGCAUACUGUGCUUAUGUGCGUGCUGCGCUUUGAUGGGGAGGAGG: 1.21
AUCCUUCAGAAUUACUUGUAGGAUAUUCCUCUCUUCAUGUUCUAAUAAACUUCUACAUCAUCAUCAAUGGCCUUGUUGCUGCUGAACACAAUGGGGAAGUGUUUGCUGAG: 0.377
AAUCCAGAAUCCCUGGUCUUGAGUCCCCAGAACUUUGCCUCUUGACUGUCCCUUCUCUUCCUACCUCCAUCCAUGGAAAAUUAGUUAUUUUCUGAUCCUUUCCCCUGCCU: 0.661
UCCCACCCUCAGUCCCCAUGUUAGUCUUGGUUGUGCCUGUCUUUAACCACAGCCUCACAGCUGGUCUCUGGCAGUGGUUAGGACAGGCGGGAGCAACCACAAUCAAACCU: 0.227
CUGUCCAUAGUGAGUGAAAGGUGGCAGGCAGGGGCCUACAGCUCCUAGGGAAUGGAGAAUUCAUGUGAAGCCGAAUGAAGGAUCUUAUCUUAUACUGUCCCCCUUUCUAA: 7.48

Sample 5 — technique: protein binding microarray; form: double-stranded DNA, one strand shown; medium: in vitro; tested at: not given; relative to: not given; direction: higher = stronger binding; endpoint: E-score
Target: Histone acetyltransferase KAT6A, both winged helices, GST fusion (KAT6A, Homo sapiens, UniProt Q92794, residues 1-181)
Notes: 8-mer, flanks averaged, mean of 2 arrays, mostly near background
Target sequence (chain): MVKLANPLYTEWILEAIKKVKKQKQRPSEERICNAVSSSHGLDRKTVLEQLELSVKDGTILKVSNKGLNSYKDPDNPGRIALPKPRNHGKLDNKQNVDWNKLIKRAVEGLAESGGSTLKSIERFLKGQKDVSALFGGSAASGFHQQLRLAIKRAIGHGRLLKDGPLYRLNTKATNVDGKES
AGATCTCA: -0.00356
ACATCTAT: 0.0355
CTACTAAA: 0.0218
TCCCATCA: -0.144
AAGGTTAG: -0.155
ACCTATTC: -0.063
AAGTGCAT: -0.0261
CATCCCAG: -0.305
GCATCCCA: -0.119
ACCCAGCC: -0.126
GCGGGGGA: 0.0689
GCCTTCAA: -0.0376
AATTACGG: 0.126
GCGGTTTA: 0.231
AGAACCTA: -0.108
CTCCGCAG: 0.00687

Repeated from above (sample 4):
AAUCCAGAAUCCCUGGUCUUGAGUCCCCAGAACUUUGCCUCUUGACUGUCCCUUCUCUUCCUACCUCCAUCCAUGGAAAAUUAGUUAUUUUCUGAUCCUUUCCCCUGCCU: 0.661
CUUACUGUUAACCAAAUUUUGAGCAAGGAGUCUCAAAGGUAAUUCUGAACCAGAAUUACAUGUUAAUGAACAGUGUACCUUUUAACAGUGUAAAUCACGGAAUAUCCGUG: 0.392
UUGAGUUUCCAAUGGAACCCUUGUUUUUUAAUAAUCGACUUUUUAAAUGUGAUCAGGACUAUAAUAUUGUACAGUUAUUAUAGGGCUUUUGGGGAAGGGGAGGAUAGCGA: 0.798
UCCCACCCUCAGUCCCCAUGUUAGUCUUGGUUGUGCCUGUCUUUAACCACAGCCUCACAGCUGGUCUCUGGCAGUGGUUAGGACAGGCGGGAGCAACCACAAUCAAACCU: 0.227
ACUUAGCAGUGGGACCUCACUUUUACAAGCACUGCUCUAGAUAUACUUGAAGAAUUUAAUAGGUACAGAAGUUUAUUCUGGAUAAUAAAUAAAUAAGGAUCACACUGUAU: 0.521
GCCUUCGCACCUGGAGGGUCAGAACGUGCACACACUGCUAACUAGUUUGCACCGGCAGUGCCUUUUUCACUGAGGGCACCUGUGCUCUCAGGUCCUUGUCCCUCAUAGCC: 0.576
UGUUGGCCAGAGGUAUCUGGGAGAACCUACCCUUUCUAGGAGUGGCUCCUGCCUGACUCUUCCUUCGUCGGAGAAAGGAAAAAACAGUGUUAAGUGACCUAGAAACUUGA: 0.387
AUCCUUCAGAAUUACUUGUAGGAUAUUCCUCUCUUCAUGUUCUAAUAAACUUCUACAUCAUCAUCAAUGGCCUUGUUGCUGCUGAACACAAUGGGGAAGUGUUUGCUGAG: 0.377
UUAGUAACGUCUAAGGCCAUGUUGCCUUUGUCUUUAGAGUAAUUCCUGGCUGUGCCUACCACUCCUGCAUACUGUGCUUAUGUGCGUGCUGCGCUUUGAUGGGGAGGAGG: 1.21
CCAUUCAGGGAACCGGCAGCGCCCACCUAGCGGAGCCGGCUUGGCCCCUCCUGAAAGGAUGGAAGGAAACCACCUCCAUCGGUACUCCAAAGUUCUUGAAGCCCACUUGG: 0.272
CCAUGCUCCUCUCAUGGGUUUCUUCCCACCUAGCCAGUGCCUUCAUUUGCUUGUUGUACAGUUUCUUGUAGUUUAUUUUUUAAUAGAUUUGAAUAAAACCUAAAUAGCGC: 2.22
CUGUCCAUAGUGAGUGAAAGGUGGCAGGCAGGGGCCUACAGCUCCUAGGGAAUGGAGAAUUCAUGUGAAGCCGAAUGAAGGAUCUUAUCUUAUACUGUCCCCCUUUCUAA: 7.48
